# Assay results collected from several papers.
# Every numbered part comes from another study and shows a few of its results, in no order. Positions count from the first letter of the parent shown.

# Study 1
# Target: ABI1, truncated, D143A, DHFR fusion (Arabidopsis thaliana)
# Technique: DHFR PCA, deep sequencing
# Matrix: yeast
# Notes: methotrexate growth selection, single substitutions
# With: (+)-ABA 0.032 µM
# Baseline: wild-type fitted maximum
# Reading: higher = stronger binding
# Starting sequence: PYL1, truncated, DHFR fusion (Arabidopsis thaliana); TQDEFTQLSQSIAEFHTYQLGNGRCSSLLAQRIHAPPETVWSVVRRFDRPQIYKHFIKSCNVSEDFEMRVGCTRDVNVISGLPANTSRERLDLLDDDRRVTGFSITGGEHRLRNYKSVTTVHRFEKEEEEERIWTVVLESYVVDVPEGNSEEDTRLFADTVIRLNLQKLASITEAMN; partner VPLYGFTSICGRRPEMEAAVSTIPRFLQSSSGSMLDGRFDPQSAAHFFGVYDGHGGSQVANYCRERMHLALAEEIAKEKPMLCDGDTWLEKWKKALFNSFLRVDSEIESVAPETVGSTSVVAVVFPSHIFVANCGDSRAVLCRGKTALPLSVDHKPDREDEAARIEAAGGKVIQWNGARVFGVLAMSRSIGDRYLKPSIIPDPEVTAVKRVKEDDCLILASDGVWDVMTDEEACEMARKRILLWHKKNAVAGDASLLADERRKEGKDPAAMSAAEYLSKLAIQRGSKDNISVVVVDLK
Substitution,relative binding score
H34L,20.4%
D92I,3.8%
R74D,-6.77%
D3Q,31.3%
E151A,44.3%
T1Q,21.9%
G21L,0.637%
A13T,17.1%
F66N,1.89%
S117N,-0.435%
Q7C,18.8%
R163H,2.34%
F5L,41.5%

# Study 2
# Target: Sal-like protein 4, full length isoform B (SALL4, Homo sapiens, UniProt Q9UJQ4-2, residues 1-616)
# Technique: universal PBM
# Molecule type: double-stranded DNA, one strand shown
# Matrix: in vitro
# Tested at: not given
# Notes: 8-mer, flanks averaged, mean of replicates
# Reading: higher = stronger binding
# Target sequence (chain): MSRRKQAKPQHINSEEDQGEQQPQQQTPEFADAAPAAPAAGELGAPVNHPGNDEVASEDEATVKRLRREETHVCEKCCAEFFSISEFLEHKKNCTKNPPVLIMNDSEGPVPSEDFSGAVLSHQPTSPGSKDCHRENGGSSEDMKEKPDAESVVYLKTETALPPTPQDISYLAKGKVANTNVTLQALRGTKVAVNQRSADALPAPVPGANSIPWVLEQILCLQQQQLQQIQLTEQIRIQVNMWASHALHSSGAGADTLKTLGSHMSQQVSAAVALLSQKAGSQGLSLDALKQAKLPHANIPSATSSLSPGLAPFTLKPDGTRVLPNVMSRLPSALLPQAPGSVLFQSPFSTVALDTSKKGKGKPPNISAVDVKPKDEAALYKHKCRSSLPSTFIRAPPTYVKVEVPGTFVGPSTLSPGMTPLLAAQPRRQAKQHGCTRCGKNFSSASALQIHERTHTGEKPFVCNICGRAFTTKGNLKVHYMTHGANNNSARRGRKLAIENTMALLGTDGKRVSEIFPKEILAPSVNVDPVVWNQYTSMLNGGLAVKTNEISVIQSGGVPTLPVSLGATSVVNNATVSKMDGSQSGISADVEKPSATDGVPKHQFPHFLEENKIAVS
Strand,E-score
TGGTGAAA,0.0522
CTCGAAAA,0.0159
CTACCATA,0.141
AAGTTACC,0.0657
AGTTGGGA,-0.0792
ACAAGATA,0.229
ATATAGTC,0.344
ACAGTAGG,0.0237
ACTAGATG,0.0461
GGCCGTTA,-0.0127
ATTGCGAG,0.0686
AACAGTTG,-0.0595
AGTGGGGA,-0.185
AAACAGCA,0.206
ATTCATGC,0.0298
CTGCGCCC,-0.393
AAGCGTAA,0.156
AAGCGTTC,-0.086
CCTGAAGC,-0.228
CAAGAATA,0.297
ACGCAGTC,-0.234
CCTCTACA,-0.00057
GTGACCAC,-0.285
GCTTATAC,0.147
GATTGTTA,0.207

# Study 3
# Target: CCNB3, cyclin fold, Cln2 fusion (human)
# Technique: yeast growth competition, sequencing
# Matrix: yeast
# Notes: weak parent motif
# Baseline: not given
# Reading: higher = stronger binding
# Starting sequence: REV3L docking peptide (human); PPVIIKYIIINRF
Substitution,normalised enrichment score
APVIIKYIIINRF [P1A],0.18
PPVIIKAIIINRF [Y7A],0.397
PPVIIKYIIANRF [I10A],0.592
PPVIAKYIIINRF [I5A],0.0946
PPVIIKYAIINRF [I8A],0.248
PPVIIKYIIIARF [N11A],0.0691

# Study 4
# Target: RING finger protein unkempt homolog, zinc fingers 1-6, GST-SBP tag (UNK, Homo sapiens, UniProt Q9C0B0, residues 30-357)
# Technique: RNA Bind-n-Seq
# Molecule type: RNA
# Matrix: in vitro
# Tested at: not given
# Notes: RNA with constant flanks, human and mouse sites, ends assumed
# Baseline: input RNA pool
# Reading: higher = stronger binding
# All sequences stand within: GGGAGUUCUACAGUCCGACGAUC … CAACAGAGGAUUGAGCAUCA
# Residues (chain): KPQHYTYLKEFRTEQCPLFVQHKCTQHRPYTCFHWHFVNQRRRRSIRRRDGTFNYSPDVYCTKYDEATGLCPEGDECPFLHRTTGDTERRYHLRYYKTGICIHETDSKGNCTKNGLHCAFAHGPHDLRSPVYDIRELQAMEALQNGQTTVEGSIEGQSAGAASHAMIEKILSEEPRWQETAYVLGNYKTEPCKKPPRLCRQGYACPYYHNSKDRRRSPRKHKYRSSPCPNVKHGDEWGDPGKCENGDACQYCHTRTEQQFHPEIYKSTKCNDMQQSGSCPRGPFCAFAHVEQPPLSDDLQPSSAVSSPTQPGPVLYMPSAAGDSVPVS
Strand,bound/input enrichment [ratio]
GCAGUGGACCAGGAGCAGCUUGGAGUUUUAACUUUCAUUUUACAAAGAACAACAUGUUUGAAUGUUUCAGCAGGCAAGUUAUAACUGGCAUCUACUUCUUGUUCUUCUAGAACACCGAAA,0.182
CCUCCGCCCUGGCCCGGCCGCCGGGCCACCCGGCCGCGACACAGACGCUAGCCACGAGCCGGAGCCGUGAGCUGGAGCCAAGCGCGCUGAGGGCUGGACAGUCAGGCCUGGUCCCCACCA,0.0535
CAAAAAAUUUAUAACAAGAUCCCAGGGACGAGCAACAACGGGUUAGAGGAGGAGUUUAAGAAAUUAACUUCAAUCAAAAUCCAGAAUGACAAGAUGCGCACGGGAAACCUUCCAGCCAAC,0.173
UUUUCCUGGAUUAUUGUUCCUUUAUAUAUAAAGGUUUGAUCAUCCAGUGCCUUAAUUGGCUUUAGUAGUGUAGGUCUUACCAUUGUCACAGUCAAUUGAUUUGACUUCAGAGCGUAAUGG,0.58
UAGACAAAGGCUGCUGCUUUCAGCCUUCUCCAAGGGAGAGCCUGGCUGGCUAACAGAGGGAGCCUGAGUCAGUCACAUCUGGCAGCUGGCAGCAAGCUCUUCAUCCCUCCACAGUGAGGA,0.0642
UUAAAAAUAGAAAAGGUCCUCAAGAGAAUGAGAGAAAUAAAAAAUGAACUUCUCCAAGCACAAAACCCUUCUGAAUUGUACCUGAGCUCCAAAACAGAAUUGCAGGGUUUAAUUGGACAG,0.429
AAACUCAUCCUUAAAGGGGUCAUACUGCUGAUUGUGGACAAAGCCUUAGAAGAGCCAAAGUAUAGCUCGCUGUAUGCUCAGCUAUGUCUGCGAUUGGCAGAAGAUGCACCAAACUUUGAU,0.139
CAGGGACGUUUUGAUGUAAAAAUUGAAGUUAAGAGCUGAUCACAAGCACAAAUCUUUCCCACUAGCCAUUUAAUAAGUUAAAAAAAGAUACAAAAACAAAAACCUACUAGUCUUGAACAA,87.6
GAGGCACAUCCUCACUGUAAACAGUAAUGCUAUAUGCAUGAAGCUUCUGUUUAUUGUUUUCCAUAUUUAAGGAAACAACAUCCCAUAAUAGAAAUGAGCAUGCAGGGCUAAGGCAUAUAG,0.232
CAUCUGCGUCACCACAUAUGUGCUGAACUUCCUCCUCCUCAUCAUCAAUUACAAACGACUAGUUUAUUUGAAUGAGGCCUGGAAGCGACAGCUGCAGCCUAAGGAAGACUGAUGGCCAGC,0.192
AUGUACCCUCUCAAGCCCAGCUGGUGGUUCUGUGCCUUCCCCUACAGUUUCCUCAUCUUCGUCUAUGAUGAGAUUCGCAAACUCAUCCUGCGCAGGAACCCCGGGGGUUGGGUGGAGAAA,0.157

# Study 5
# Target: RNA binding protein fox-1 homolog 2, RRM domain, GST-SBP tag (RBFOX2, Homo sapiens, UniProt O43251-10, residues 100-194)
# Technique: RNA Bind-n-Seq
# Molecule type: RNA
# Matrix: in vitro
# Tested at: 365 nM
# Notes: natural RNA segment, single round, ends assumed
# Baseline: no-protein control
# Reading: higher = stronger binding
# All sequences stand within: GGGAGUUCUACAGUCCGACGAUC … UGGAAUUCUCGGGUGCCAA
# Construct (chain): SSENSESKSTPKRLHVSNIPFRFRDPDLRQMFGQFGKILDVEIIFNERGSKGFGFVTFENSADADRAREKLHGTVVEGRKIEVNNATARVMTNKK
Strand,RBNS enrichment (R)
CAGAUCCUGCGCACCACGCCCCCUCCCCCAAGUGCCCUCUGCCGAGCCCGUCCUGGUAUUGACUUUGUGGCUGAGUUCCGAGGUGCCUUUCCCGGAUCCUCCUCGCUGGG,0.269
AUUAGAUACUUGUCACUGCCUAUACCUGCAGCUGAACUGAAUGGUACUUCGUAUGUUAAUAGUUGUUCUGAUAAAUCAUGCAAUUAAAGUAAAGUGAUGCAACAUCUUGU,0.507
GAGGCAUUCAUUGUGAGGUCUACUGGAUGAGGCCCAUAGUUGAGACUUGUAGACAUUUAUUUAUACUGUGUCAUGUUUUAUAAUUUAUACAUAAAAUGUCUGGUUGACUG,1.33
GCAGCGAAGCCUCGGGGCCCAAGCCCCUCCCCAGCCCCCUCUCCCGGACAGACGCCUUGCCCAGGGUGUGUUUGCUGAGUGUCUUGACUACCGUGACACCACGCAUGGCC,0.816
CAGGCCUGACGUUAAGAAUGGUGAGUGCAUAGGCAGAAUGAGGCCUGAAUAAAGAUGGGCUCUGAAAGGGGACUUCUGAGCAGGCCUAACUGUAGUCCUGGAAGUCUGAA,1.76
ACAUGGAAAAUUCAAGGAUUGUUUAAAGGUCUGAUGAUCACACACAAAAUGUAAUUCCGGUUAUUUAAGUCAUUUCUGUGAUUCUAUCAUGUACAGUUUCCAGAAUUGUC,0.388
CCUUCAGGCGAUACUGAUGUAAACUAAAGCUUAAAAACCACCGUUUUACUGUGACUUCAUGAAGAAUAUAAUUGCAAUAUCACCUAAAUUUUUAUCCUGGCUGGGAUGGG,0.495
GUGCUUGCUCUGACUCCUUGUUGCAGGGCAUAAAUGUGCCCCCCCCUCCACGCGCUGAUCGAUACUCUGCCUGUGUCCACUCAACUCAGAUUACAAACAGCUCUCUCUGC,0.736
AGGUAAUAGAUAGGUGAUAUACAUGAUACAUUCUCAAGAGUUGCUUGACCGAAAGUUACAAGGACCCCAACCCCUUUGUCCUCUCUACCCACAGAUGGCCCUGGGAAUCA,0.787
AAUCCUACAGUCAAUAGCUAAAGACGAAACCUUCAUUUCAGAACUCUCAUGAAUAUUCUUUAAGUGCUAUUUAAACCUCCCCAGCACUUAGAUGCAUAUAAUGGACUUAC,0.696
AGGGUCCCUUUUGCAUUGCCAAGUGCCAUAACCAUGAGCACUACUCUACCAUGGUUCUGCCUCCUGGCCAAGCAGGCUGGUUUGCAAGAAUGAAAUGAAUGAUUCUACAG,0.846
UGGCGUGAUGCUUCGGGAGCCUCGAAGAAUCUAUGAAUGAAAUAGAAGUGUUAACUGUUGUUGGCAGUGUAAUAUAAAACUACCAUCUACAGCCACCAAAGGAAAGCAUC,1.4

# Excerpt of the above (study 5):
Strand,RBNS enrichment (R)
CAGGCCUGACGUUAAGAAUGGUGAGUGCAUAGGCAGAAUGAGGCCUGAAUAAAGAUGGGCUCUGAAAGGGGACUUCUGAGCAGGCCUAACUGUAGUCCUGGAAGUCUGAA,1.76
GUGCUUGCUCUGACUCCUUGUUGCAGGGCAUAAAUGUGCCCCCCCCUCCACGCGCUGAUCGAUACUCUGCCUGUGUCCACUCAACUCAGAUUACAAACAGCUCUCUCUGC,0.736
ACAUGGAAAAUUCAAGGAUUGUUUAAAGGUCUGAUGAUCACACACAAAAUGUAAUUCCGGUUAUUUAAGUCAUUUCUGUGAUUCUAUCAUGUACAGUUUCCAGAAUUGUC,0.388
CAGAUCCUGCGCACCACGCCCCCUCCCCCAAGUGCCCUCUGCCGAGCCCGUCCUGGUAUUGACUUUGUGGCUGAGUUCCGAGGUGCCUUUCCCGGAUCCUCCUCGCUGGG,0.269
